Assay results from different studies.
Protocols differ between the studies behind these lines. Numbers after ± are the reported error.

Structure (SMILES) | assay | system | conditions | how to read | measurement | value
COc1ccc2c(=O)n(C)c(-c3ccccc3)nc2c1 |  | male Sprague-Dawley rat, testis | oral, 30 mg/kg, 0.5 h |  | tissue concentration | 32.4 ng/g
NC1(C(=O)N[C@@H](CCO)c2ccc(Cl)cc2)CCN(c2nc[nH]c3nccc2-3)CC1 |  | metastatic CRPC patients | 320 mg b.i.d., any grade, treatment-related, together with: enzalutamide 160 mg daily |  | incidence of Pyrexia | 0%
CN(C)C(=O)c1cc2cnc(Nc3ccc(-c4ccc5c(=O)cc(N6CCOCC6)oc5c4)cc3)nc2n1C1CCCC1 |  | BALB/c mouse, liver | oral, 20 mg/kg, 24 h |  | concentration | 14 ± 10.1 ng/g
COc1ncc(-c2nc3c(n2C(C)C)[C@H](c2ccc(Cl)cc2)N(c2cc(Cl)cn(C)c2=O)C3=O)c(OC)n1 | LC-MS/MS | human, plasma | oral, 15 mg, cycle 1 day 1, low-dose arm |  | AUC(0-last) | 1300 ng·h/mL
CNCc1ccc(-c2[nH]c3cc(F)cc4c3c2CCNC4=O)cc1 |  | patients | oral, 600 mg twice daily, grade 5 |  | abdominal pain incidence | 0%
O=C(O)[C@H]1O[C@@H](Oc2ccc(/C=C\c3cc(O)cc(O)c3)cc2)[C@H](O)[C@@H](O)[C@@H]1O |  | human, cerebrospinal fluid | dose not given, mean |  | CSF concentration | not detected
COc1cc(Nc2ncc3c(n2)-c2ccc(Cl)cc2C(c2c(F)cccc2OC)=NC3)ccc1C(=O)O | refers to: Fever, grade 1 | cancer patients, phase 1/2 | oral, dose not given, together with: pembrolizumab |  | patients with adverse event | 8%
CC[C@H](C)/C=C/C(=O)N1C[C@@H](C)C[C@H]1C(=O)N[C@@H](CCC1CCCCC1)C(=O)N[C@@H](CC(C)C)C(=O)NC(C)(C)C(=O)N[C@@H](CC(C)C)C(=O)N[C@@H](CC(C)C)C(=O)NC(C)(C)C(=O)NC(C)(C)C(=O)NCCC(=O)N[C@@H](C)CN(C)C | circular dichroism | phosphate buffer | pH 7.4, 20 °C |  | alpha-helix content | 93.6%
CN(C(=O)n1cnc(-c2cccnc2)c1)[C@H]1CC[C@H](O)CC1 |  | rat, cerebellum | oral, 10 mg/kg daily for 5 days, 4 h |  | tissue concentration | 35.9 ± 6.5 ng/g
CN1CCN(c2cccc3c2CCN(C(=O)/C=C/c2c(-n4cnnn4)ccc(Cl)c2F)[C@@H]3C(=O)Nc2ccc(C(=O)O)cc2)C(=O)C1 |  | healthy human subjects | intravenous infusion, 1 mg/h, 5 days |  | subjects with skin irritation | 11.1%
NS(=O)(=O)c1ccc(NN=C2C(=O)Nc3ccc4[nH]nnc4c32)cc1 |  | octanol/buffer | pH 11 |  | logP | -0.62
CCc1cc(C(=O)NC)c2nccc(N3CCc4c(cc(Cn5ccnc5)cc4-c4cn(C)nc4C(F)(F)F)C3=O)c2c1 |  | Sprague Dawley rat | oral, 100 mg/kg once daily, 7 days | reference: vehicle | change in HCT | -0.22%
CC(C)(C(=O)N1CCOc2c(C#N)cncc2C1)C(F)F |  | human, both sexes, plasma | oral, 10 mg once daily, 14 days, multiple ascending dose | reference: day 14 over day 1 | accumulation ratio Cmax | 1
N#Cc1ccc2c(c1)[C@H]1CCCN(C(=O)c3ccc4[nH]cnc4c3)[C@H]1C2 |  | human | 10 mg, end of trial | reference: baseline | cortisol level change | -117 nmol/L
CC(C)C[C@H](NC(=O)[C@@H](Cc1c[nH]c2ccccc12)NC(=O)[C@H](Cc1ccc(O)cc1)NC(=O)[C@H](CO)NC(=O)[C@H](Cc1c[nH]c2ccccc12)NC(=O)[C@H](Cc1c[nH]cn1)NC(=O)[C@@H]1CCC(=O)N1)C(=O)N[C@@H](CCCNC(=N)N)C(=O)N1CCC[C@H]1C(=O)NCC(N)=O |  | Chinese CPP girls | intramuscular, 22.5 mg, 12 months, day 1, month 6 |  | patients, drug-related Dermatitis TEAEs | 0%
CCCC(=O)Nc1cc(C2CC2)[nH]n1 |  | octanol/buffer, 40 mM buffer | pH 11 |  | logP | 1.68
CCN1/C(=C/C(C)=O)Sc2ccc(F)cc21 |  | cynomolgus monkey | oral, 10 mg/kg, 2 h post-dose | reference: pre-dose | PR interval change | 103 ± 7.1%
[O]=[Co].[O]=[Co][O][Co]=[O] |  | Crl:CD(SD) rat female, blood | oral, 220 mg Co/kg/day, 90 days, repeated dose |  | haematocrit | 47%
COc1cccc(OC)c1CNC(=O)c1ccc2c(c1)C(=NNc1ccc(S(N)(=O)=O)cc1)C(=O)N2 |  | octanol/buffer | pH 11 |  | logP | 2.39
Cc1cc(NC2CCN(C(=O)OC3CCN(C(=O)/C=C/CN(C)C)C3)CC2)n2ncc(C(C)C)c2n1 (stereo not drawn) | CTCAE v4.0, refers to: Arthralgia | patients with advanced solid tumours | oral, dose not given, all schedules, grade 3 or higher |  | patients with TEAE | 0%
COC(=O)c1ccccc1-c1c2ccc(=O)cc-2oc2c1ccc1cccc(N(C)C)c12 |  | HCl 12.5 mM | pH 1.9, 10% DMSO |  | emission maximum | 580 nm
